Published values of several laboratories.
Numbered parts are unrelated; each lists some results of a single study. Substitutions count along the parent as printed.

Study 1
Target: Ras GTPase-activating protein-binding protein 1, full length (G3BP1, Homo sapiens, UniProt Q13283)
UniProt Q13283, sequence (whole entry, looked up): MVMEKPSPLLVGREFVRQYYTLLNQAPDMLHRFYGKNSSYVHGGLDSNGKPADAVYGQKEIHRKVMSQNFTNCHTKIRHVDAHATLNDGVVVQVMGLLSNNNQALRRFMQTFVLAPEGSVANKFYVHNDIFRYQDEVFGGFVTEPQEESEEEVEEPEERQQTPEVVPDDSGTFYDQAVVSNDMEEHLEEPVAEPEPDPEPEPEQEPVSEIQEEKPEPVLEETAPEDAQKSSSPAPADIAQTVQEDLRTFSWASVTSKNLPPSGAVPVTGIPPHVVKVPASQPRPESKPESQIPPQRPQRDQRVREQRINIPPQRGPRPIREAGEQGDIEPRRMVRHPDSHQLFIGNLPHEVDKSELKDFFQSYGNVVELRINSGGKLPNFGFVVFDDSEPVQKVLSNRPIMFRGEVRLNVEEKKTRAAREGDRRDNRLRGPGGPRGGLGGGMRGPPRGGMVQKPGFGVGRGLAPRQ
Technique: RNA Bind-n-Seq
Form: RNA
Matrix: in vitro
Concentration: 200 nM
Setting: whole 134-nt RNA, ends assumed
Added: 150 mM KCl
Relative to: input library
Direction: higher = stronger binding
`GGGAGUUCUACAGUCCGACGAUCACCAUGCAGGUGGGCAUCUUUGGGAAGUGGGGCAAGGGGGGGAUAGGGAGGGGGGUAACACUUUGGGAACAGGUGGUCCCAGGUCAAAUCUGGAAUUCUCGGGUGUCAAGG` gave a log2 enrichment of 1.03.
With `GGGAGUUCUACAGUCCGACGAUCUGGAUGGACACCAUUAUCGUCGUGUGGCACGGGUUGACCUAAGGAAGAAGACAGAGACUUUCUCCACAAGAAGGGUUAAGUCUGGGCUGUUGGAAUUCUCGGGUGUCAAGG` the log2 enrichment was -0.0932.
`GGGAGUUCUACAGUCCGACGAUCCCUCAAGUCCUGUGCUACACAUCGUAUGUACCGAAUCGGAGGUUUGGUUUGGAAAGUAUUAUGUUACGCCGUUCGGAUCUGCACUUCCAGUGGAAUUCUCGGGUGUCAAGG` has a log2 enrichment of 0.146.
`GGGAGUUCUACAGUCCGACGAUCCAAGUCCUGUGCUACACAUCGUAUGUACCGAAUCGGCCCCGGGCCCCGGCCCCGGGAAAGUAUUAUGUUACGCCGUUCGGAUCUGCACUUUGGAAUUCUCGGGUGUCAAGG` has a log2 enrichment of -0.673.
With `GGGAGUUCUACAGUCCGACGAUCGCAGGAAGUAAAAACAAAUGGAAAUGCUUCGGAUAGUGGCAGGGGUGGGGGUUGCUAAGGAAAGGGUGGUAUGGGAGUGGGUAAAGAGUUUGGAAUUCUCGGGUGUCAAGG` the log2 enrichment was 0.79.
`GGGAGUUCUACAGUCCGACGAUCGUCCUGUGCUACACAUCGUAUGUACCGAAUCGGGUUUGGGUUUUUGGGUUUUUUUGGGAAAGUAUUAUGUUACGCCGUUCGGAUCUGCACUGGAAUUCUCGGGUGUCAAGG` has a log2 enrichment of -0.39.
For `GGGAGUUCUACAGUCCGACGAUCUCAAGUCCUGUGCUACACAUCGUAUGUACCGAAUCGGUUUGGUUUGGUUUGGGGAAAGUAUUAUGUUACGCCGUUCGGAUCUGCACUUCCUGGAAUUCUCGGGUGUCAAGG`, the log2 enrichment was -0.704.
The log2 enrichment of `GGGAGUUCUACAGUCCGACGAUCCCUGUGCUACACAUCGUAUGUACCGAAUCGGGGCCCCCCGGGCCCCCCGGGCCCCCCGGGAAAGUAUUAUGUUACGCCGUUCGGAUCUGCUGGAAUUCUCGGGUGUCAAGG` is reported as -0.667.

Study 2
Substitution: I133F
Target: ABI1, truncated, D143A, DHFR fusion (Arabidopsis thaliana)
Technique: DHFR PCA, deep sequencing
Matrix: yeast
Setting: methotrexate growth selection, single substitutions
Relative to: wild-type fitted maximum
Direction: higher = stronger binding
Starting sequence: PYL1, truncated, DHFR fusion (Arabidopsis thaliana); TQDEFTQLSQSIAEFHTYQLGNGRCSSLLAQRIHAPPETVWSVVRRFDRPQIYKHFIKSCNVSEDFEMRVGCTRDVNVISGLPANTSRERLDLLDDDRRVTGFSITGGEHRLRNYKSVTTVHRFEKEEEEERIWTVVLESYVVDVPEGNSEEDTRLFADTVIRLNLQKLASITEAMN
It gave 8.15% for “relative binding score” (added: (+)-ABA 0.032 µM).
The “relative binding score” was 104% (added: (+)-ABA 2500 µM).
The “relative binding score” was 110% (added: (+)-ABA 710 µM).
For added: (+)-ABA 0 µM: “relative binding score” read 4.99%.
The “relative binding score” was 6.77% (added: (+)-ABA 0.0091 µM).
added: (+)-ABA 58 µM — “relative binding score”: 82.6%.

Study 3
Target: Eukaryotic initiation factor 4A-I (EIF4A1, Homo sapiens, UniProt P60842, residues 1-406, full length assumed)
UniProt P60842, sequence (whole entry, looked up): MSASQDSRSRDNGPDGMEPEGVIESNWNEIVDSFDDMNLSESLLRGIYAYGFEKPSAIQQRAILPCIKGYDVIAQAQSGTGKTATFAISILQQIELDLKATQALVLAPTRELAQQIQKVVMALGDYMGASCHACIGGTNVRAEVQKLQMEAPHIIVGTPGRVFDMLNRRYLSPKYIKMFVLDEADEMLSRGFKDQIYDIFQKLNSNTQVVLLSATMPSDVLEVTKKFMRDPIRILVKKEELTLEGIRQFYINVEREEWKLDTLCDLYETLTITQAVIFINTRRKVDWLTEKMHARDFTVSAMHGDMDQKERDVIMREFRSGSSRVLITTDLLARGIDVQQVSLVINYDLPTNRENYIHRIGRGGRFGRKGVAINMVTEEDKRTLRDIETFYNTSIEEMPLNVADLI
Technique: RNA Bind-n-Seq
Form: RNA
Matrix: in vitro
Concentration: 15 pmol
Setting: 4-mer, random 30-nt RNA, single round
Added: 3 µM DMDA-PatA, 2 mM AMP-PNP
Relative to: input library
Direction: higher = stronger binding
For `GUGA`, the 4-mer enrichment was 1.47 fold.
`ACCU` has a 4-mer enrichment of 0.652 fold.
With `AGAG` the 4-mer enrichment was 1.21 fold.
`AACA` has a 4-mer enrichment of 0.47 fold.
`UCAC` gave a 4-mer enrichment of 0.509 fold.
For `UUUA`, the 4-mer enrichment was 1.13 fold.
With `CCCC` the 4-mer enrichment was 0.467 fold.
`AAAA` gave a 4-mer enrichment of 0.849 fold.

Mixed results
`CN(C)CC#Cc1ccc(OCCCc2sc(N3CCc4cccc(C(=O)Nc5nc6ccccc6s5)c4C3)nc2C(=O)O)c(F)c1`: hepatotoxicity “no effect” (primary human hepatocyte spheroids; ATP content; 1- and 10-fold concentration, 7 days).

Some of these lines once more (study 2):
For added: (+)-ABA 0 µM: “relative binding score” read 4.99%.
The “relative binding score” was 6.77% (added: (+)-ABA 0.0091 µM).
added: (+)-ABA 58 µM — “relative binding score”: 82.6%.
